# Assay results gathered from unrelated publications.
# Lines come from different studies, so protocols differ. “And” joins repeats or separate records; there may be more than shown. ± marks the error that the study gave.
SMILES,tested on,test,system,setting,how to read,endpoint,result
O=[N+]([O-])c1ccc(C=[N+]2N=C(Nc3ccccc3)[S][Pt-]2([Cl])[Cl])s1,HEL human lung fibroblasts,"altered cell morphology, microscopy",,confluent cultures,,cytotoxic concentration,20 µM
Nc1ncnc2c1c(-c1ccc(F)c(F)c1)cn2[C@@H]1O[C@H](CO)[C@@H](O)[C@H]1O,HEK,cytotoxicity,,,,EC50,> 200 µM
CCc1cccc(CC)c1NC(=O)c1nn(C)c2c1CCc1cnc(Nc3ccc(N4CCN(C)CC4)cc3OC)nc1-2,HCT-116 C604Y clone A,cell proliferation,,,reference: C604Y clone A over parental HCT-116,IC50 ratio,18.8
CC(=O)[O-].O.O.O.O.[Ni+2].[O-]c1ccc(Br)cc1C=NCCN1CCOCC1,Shigella flexneri,,,20 µL of 100 µM per disc,,inhibition zone diameter,27 mm
CCN(CC)CCOc1ccc(C(=C(C)Cc2ccc(Cl)cc2)c2ccc(Cl)cc2)cc1,NCI-60 tumour cell lines,,,"10 µM, mean over cell lines",,growth inhibition,17.1%
CSC(=S)N/N=C(\C)c1ccc(S(=O)(=O)N2CCC(C)CC2)cc1,HepG2,annexin V/PI staining,,"IC50, 72 h",,apoptotic cells late,6.65%
CC[C@H](C)[C@H](NC(=O)[C@@H]1CCCN1C(=O)[C@@H](N)C(C)C)C(=O)N[C@@H](C)C(N)=O,PC-12,"Aβ42-induced neurotoxicity, inhibitor, MTT",,"concentration not given, 6 h, 37 °C, peptide to Aβ42 1:1, together with: Aβ42 2 µM",reference: untreated cells,viability,93%
COc1ccc([C@@H]2CC(=O)c3c(O)cc(O[C@@H]4O[C@H](CO[C@@H]5O[C@@H](C)[C@H](O)[C@@H](O)[C@H]5O)[C@@H](O[C@H]5O[C@H](CO)[C@@H](O)[C@H](O)[C@H]5O)[C@H](O)[C@H]4O)cc3O2)cc1O,MRC5,trypan blue exclusion,,"100 µg/mL, 72 h",,cell count,14600 ± 582
COc1cc(CNC(=O)C[C@H](C)CCC=C(C)C)ccc1OCc1cn(-c2ccccc2[N+](=O)[O-])nn1,UACC-257 melanoma cells,SRB,,"10 µM, 48 h",,growth percent,71.2%
C=C1[C@H](O)CC(=C/C=C2\CCC[C@]3(C)[C@@H]([C@H](C)CCCCO)CC[C@@H]23)C[C@H]1O,HL-60,"cell differentiation, NBT reduction",,,"reference: compound over 1α,25-dihydroxyvitamin D3",EC50 ratio,10
CC(C)C[C@@H]1NC(=O)[C@H](CC(C)C)NC(=O)[C@H](Cc2ccccc2)NC(=O)[C@@H]2CSSC[C@@H](C(=O)O)NC(=O)[C@H](CSSC[C@H](N)C(=O)N3CCC[C@H]3C(=O)N2)NC(=O)CNC1=O,THP-1,inhibitor,,"concentration not given, together with: fibronectin",,cell adhesion,no inhibition
FC(F)(F)c1ccnc(-c2cc(C(F)(F)F)ccn2)c1.FC(F)(F)c1ccnc(-c2cc(C(F)(F)F)ccn2)c1.[Cl-].[Cl-].[Ru+2].c1csc(-c2ccc(-c3ccc(-c4nc5c6cccnc6c6ncccc6c5[nH]4)s3)s2)c1,SK-MEL-28,cell viability,,"normoxia, together with: red light 633 nm, 100 J/cm2",reference: dark EC50 over light EC50,phototherapeutic index,28
COc1cc(CNC(=O)C[C@H](C)CCC=C(C)C)ccc1OCc1cn(-c2ccc([N+](=O)[O-])cc2)nn1,OVCAR-3 ovarian cancer cells,SRB,,"10 µM, 48 h",,growth percent,108%
CC(Cc1ccc(Cl)cc1)=C(c1ccc(O)cc1)c1ccc(Cl)cc1,NCI-60 tumour cell lines,,,"10 µM, mean over cell lines",,growth inhibition,7%
O=Cc1c(O)ccc2ccccc12,HUVEC,"RNA sequencing, refers to: DIPK2B",,"75 µM, 24 h",reference: DMSO,log2 fold change,-3.73
Cc1c2ccnc(C(=O)N[C@H](C)CN(C)C)c2cc2c3cc(OCCCN4CCN(C)CC4)ccc3n(C)c12,healthy donor iPSCs,RNA-seq,,100 nM,reference: vehicle,C9orf72 intron splicing or read counts,no effect
O=C(NCCCCc1ccccc1)n1c(=O)oc2cc(-c3ccc(F)cc3)ccc21,SW-403 and RAW264.7,,,"0.1 to 20 µM, 3 h",,dihydroceramide d18:0/16:0 level,increased
CC(C)(C)CC(C)(C)Nc1c(-c2ccc3c(c2)OCO3)nc2cnccn12,CT26,scratch,,"25 µM, 24 h",reference: untreated,cell migration,44.4%
O=[N+]([O-])c1ccc(NC(=S)N/N=C/c2cccs2)cc1,HEL human lung fibroblasts,"altered cell morphology, microscopy",,confluent cultures,,cytotoxic concentration,≥ 20 µM
COc1cc(CNC(=O)C[C@H](C)CCC=C(C)C)ccc1OCc1cn(-c2ccc(C#N)cc2)nn1,OVCAR-3 ovarian cancer cells,SRB,,"10 µM, 48 h",,growth percent,94%
Cn1c(=O)oc2ccc(-c3ccc(CC(C#N)NC(=O)C4CNCCCO4)c(F)c3)cc21 (stereo not drawn),,,human,"oral, 10 mg once daily, TEAE, multiple ascending dose",,urine RBC positive incidence,0%
Cc1ccc(C(C)C)cc1.[Cl-].[Cl][Ru+].[Ru+].c1ccc(-c2cn(CCCCOc3ccccc3-c3nc4ccccc4s3)nn2)nc1,MCF7,annexin V/PI flow cytometry,,"8 µM, 24 h",,late apoptotic cells,15.3%
COc1cc(CNC(=O)C[C@H](C)CCC=C(C)C)ccc1OCc1cn(-c2ccccc2)nn1,OVCAR-3 ovarian cancer cells,SRB,,"10 µM, 48 h",,growth percent,117%
CC/C=C\C/C=C\C/C=C\C/C=C\C/C=C\C/C=C\CCC(=O)Nc1ccn(C2OC(CO)C(O)C2(F)F)c(=O)n1 (stereo not drawn),SW-620,NCI60 screen,,,,TGI,23.2 µM
CC(=O)OC[C@H]1O[C@@H](Sc2sc(C(=O)c3ccc(C)cc3)c(N)c2-c2nc3ccccc3s2)[C@H](OC(C)=O)[C@@H](OC(C)=O)[C@@H]1OC(C)=O,U-251,SRB,,"10 µM, 48 h",reference: untreated,growth,59.5%
CC(=O)N[C@H](C(=O)N[C@H](C(=O)N[C@@H](CCCNC(=N)N)C(=O)N1Cc2ccccc2C[C@H]1C(=O)N[C@@H](Cc1ccccc1)C(N)=O)C1CCCCC1)C(C)C,MBP-specific BC-3 T cells,"Bio-Plex multiplex, refers to: PDGF-bb",,"200 µg/mL, 24 h, together with: MBP87-99 antigen",,cytokine level,416 ± 292 pg/mL
COCCNCC(=O)N(CCCCN)CC(=O)N(CC(=O)N(CC(=O)N(CCCCN)CC(=O)N[C@@H](CCCCN)C(=O)N[C@H](CCCCN)C(=O)N[C@@H](CCSC)C(=O)NCCCC[C@H](NC(=O)[C@H](CCSC)NC(=O)[C@@H](CCCCN)NC(=O)[C@H](CCCCN)NC(=O)CN(CCCCN)C(=O)CN(C(=O)CN(Cc1ccc2c(c1)OCO2)C(=O)CN(CCCCN)C(=O)CNCCOC)[C@H](C)c1ccccc1)C(N)=O)[C@H](C)c1ccccc1)Cc1ccc2c(c1)OCO2,H358,scratch,,48 h,,minimum migration-inhibiting concentration,3 µM
CC(C)=CCc1c(O)cc2c(c1O)C(=O)OC2,"HepG2, palmitic acid-induced insulin resistance",,,"10.0 µM, 24 h",,glucose consumption,9.15 ± 0.38 mM
C=CC(=O)Nc1cc(Nc2nccc(-c3c(-c4cccc(F)c4)n(C)c4ccccc34)n2)c(OC)cc1N(C)CCN(C)C,H1975,"Western blot, refers to: cleaved caspase-3",,"concentration not given, 24 h",,protein level,increased
Cc1ccc(-c2cn([C@H]3C[C@H](O)[C@@H](CO)O3)c3ncnc(N)c23)cc1,HEK,cytotoxicity,,,,EC50,> 200 µM
Nc1ncc(-c2cnn(C3CCNCC3)c2)cc1-c1nc2ccc(O)cc2o1,HEL 92.1.7,"RT-PCR, refers to: cyclin B1",,"concentration not given, 16 h",reference: untreated,mRNA level,decreased
CC(=O)O[C@H]1CC[C@]2(C)[C@H]3C(=O)C=C4[C@@H]5C[C@@](C)(C(=O)OCc6ccccc6)CC[C@]5(C)CC[C@@]4(C)[C@]3(C)CC[C@H]2C1(C)C,HepG2,annexin V/7-AAD flow cytometry,,"8 µM, 24 h",,apoptotic cells,21.5%
CCC12CCc3c(c4ccccc4n3C)CCN(CC3OC31)C2 (stereo not drawn),BV-2,western blot,,"25 µM, together with: LPS",reference: LPS alone,Nrf2 protein level,4.45 fold
C[C@@H]1O[C@@H](O[C@H]2[C@H](O[C@H]3CC[C@@]4(C)C(CC[C@]5(C)C4CC=C4C6CC(C)(C)CC[C@]6(C(=O)O[C@@H]6O[C@H](CO)[C@@H](O)[C@H](O)[C@H]6O)CC[C@]45C)[C@]3(C)CO)OC[C@H](O)[C@@H]2O)[C@H](O)[C@H](O[C@@H]2OC[C@@H](O)[C@H](O)[C@H]2O)[C@H]1O (stereo partly drawn),"HepG2, palmitic acid-induced insulin resistance",,,"12.5 µM, 24 h",,glucose consumption,9.73 ± 0.39 mM
CCc1cnc(NC(=O)c2cc(S(=O)(=O)N3CCOCC3)ccc2N(C)C2CCCC2)s1,HCC827 and HCC827-GR,"Western blot, refers to: PTK7, MET, STAT3 signalling",,"10 µM, 24 h",,PTK7 and MET N-glycosylation,decreased
Cc1cc(/N=N/c2ccc(/N=N/c3ccc(O)c(C(=O)O)c3)cc2)c(N)cc1N,primary mouse articular chondrocytes,"real-time PCR, refers to: Col2a1",,"25 µM, micromass culture",,mRNA level,increased
C[n+]1cn(C2OC(COP(=O)(O)OP(=O)([O-])OP(=O)(O)OCC3OC(n4cnc5c(=O)[nH]c(N)nc54)C(O)C3O)C(O)C2O)c2nc(NCc3ccc(Cl)cc3)[nH]c(=O)c21 (stereo not drawn),HEK293 transfected with capped mRNA,luciferase expression,,,reference: m7GpppG-capped mRNA,relative protein expression,2.3 and 2.29
CC1CCCN(CCCNC(=O)C2=Cc3sc4c(c3CS2)CCCC4)C1 (stereo not drawn),COLO 320,,,"20 µM, 48 h",reference: vehicle,esterified cholesterol,1.6 fold
COc1cc(CNC(=O)C[C@H](C)CCC=C(C)C)ccc1OCc1cn(-c2ccc(Br)cc2)nn1,SF-268 CNS cancer cells,SRB,,"10 µM, 48 h",,growth percent,71.7%
Cc1nc(C)c(C=[N+]([O-])C(C)(C)C)nc1C,,"Western blot, refers to: GSK-3β phospho-Ser9","mouse, MPTP model",30 mg/kg,,protein level increase,120%
CCCCCCCCCCCCCCOc1c(O)cc(C(=O)O[C@@H]2Cc3c(O)cc(O)cc3O[C@@H]2c2cc(O)c(O)c(O)c2)cc1O,U-87 MG,"western blot, refers to: p62/SQSTM1",,"50 µM, 24 h",,protein level,decreased
CCC(=C(c1ccc(Cl)cc1)c1ccc(OCCCN(C)C)cc1)c1ccc(OC)cc1,NCI-60 tumour cell lines,,,"10 µM, mean over cell lines",,growth inhibition,44.3%
COc1cc(/C=C2\SC(=S)NC2=O)cc(OC)c1OCc1ccc(B2OC(C)(C)C(C)(C)O2)cc1,RAW264.7 cells expressing mito-FAST,flow cytometry,,"concentration not given, together with: PMA",reference: PMA over no PMA,red fluorescence ratio,~4 fold
COc1ccc(CC(C)=C(c2ccc(Cl)cc2)c2ccc(OCCN3CCOCC3)cc2)cc1,NCI-60 tumour cell lines,,,"10 µM, mean over cell lines",,growth inhibition,5.43%
[64Cu+2].c1cnc(CNCc2ccc(CN3CCCN4CCNCCCN(CC4)CC3)cc2)nc1,CXCR4,,"NOD/SCID mouse, U87 and U87-stb-CXCR4 xenografts, heart","iv, 90 min, no blocking dose, ex vivo",,tissue uptake,0.81 ± 0.06 %ID/g
